Measurements gathered from unrelated publications.
Protocols differ between the studies behind these lines. Several values in a cell are separate wells, animals, samples, runs or records. ± gives the spread as reported.

The maximal cytotoxicity of `COc1cccc2c1C(=O)c1c(O)c3c(c(O)c1C2=O)C[C@@](O)(C(=O)CO)C[C@@H]3O[C@H]1C[C@H](N)[C@H](O)[C@H](C)O1` is reported as 96.1% (HME1; WST-1; concentration not given, 72 h, highest tested concentration).
The toxicity of `CC(=O)c1nn(-c2ccc(Cl)cc2)/c(=N/N=C(\C)c2ccc(NC(=O)c3ccc(C)cc3)cc2)s1` is reported as 72.9% (HepG2; 0.312 µM).
`O=C(Nc1nnc2n3c(nc(-c4ccc(Cl)cc4)c1-2)SCC3=O)c1ccccc1` — result for “mean growth percent”: 97.4% (NCI60 cell panel; SRB; 10 µM).
`Cc1cc(Nc2ncc(Cl)c(Nc3ccccc3S(=O)(=O)C(C)C)n2)c(OC(C)C)cc1C1CCNCC1`: “log2 fold change” -1.83 (CLB-BAR; phosphoproteomics LC-MS/MS, refers to: RLTPR phosphorylation; 200 nM, 60 min; relative to: untreated).
`Clc1nc(NCc2ccco2)c2[nH]cnc2n1` gave a ΔPSI of -0.325 (FD iPSC-derived cardiomyocytes; alternative splicing, RNA-seq, refers to: CRYZ exon chr1(-):74707102-74707204; unit not given; relative to: DMSO minus compound).
For `CC(C)NCC(O)c1ccc(O)c(O)c1` (stereo not shown), the sarcomere length was 1.8 µm (mouse ventricular cardiomyocytes; dose not given, 0.339 s).
Under cytokine release, `CC[C@H](C)N(CC(=O)N(CC(=O)N(CC(=O)N(CC(=O)N(CC(=O)N(CC(=O)N(CC(N)=O)[C@@H](C)c1ccccc1)[C@@H](C)c1ccccc1)[C@@H](C)CC)[C@@H](C)c1ccccc1)[C@@H](C)c1ccccc1)[C@@H](C)CC)C(=O)CNCCCCN` is recorded as “decreased” (THP-1 macrophages; refers to: IL-8; 50 µM, 72 h, added: LPS 2 ng/mL; relative to: LPS alone).
`Cc1c(C(=O)O)ccc2c3n(nc12)[C@@H]1[C@H](C3)N(CC2CC2)[C@@]2(C(=O)Nc3cc(Cl)ccc32)[C@H]1c1cccc(Cl)c1F` has a GI50 of 0.33 nM (NUGC-4; cell growth, alamarBlue; unbound).
With `O=C(/C=C/C=C/C=C/C1CCCCC1)NC1=C[C@@](O)(/C=C/C=C/C=C/C(=O)NC2=C(O)CCC2=O)[C@@H]2O[C@@H]2C1=O` the GI50 was 7070 nM (LS-411N; cell growth, CellTiter-Glo; 78 h).
For `CC(=O)c1nn(-c2ccc(Cl)cc2)/c(=N/N=C(\C)c2ccc(NC(=O)c3ccccc3)cc2)s1`, the toxicity was 0.409% and 9.95% (HepG2; 0.078 µM).
With `Nc1nccs1` the MyBP-C level was 72.6% (MYBPC3 iPSC cardiomyocytes; plate-normalised; concentration not given, 24 h, hit retest).
For `CCCCOC(=O)Cn1c2ccc(OC)cc2c2nc3ccccc3nc21`, the efficacy was 36% (C127 LDR GFP reporter cells; silenced GFP reporter induction, activator, high-content imaging; retest, two-run mean).
`CCc1cnc(N2CCC(c3nc(COc4ccc(-n5cnnn5)cc4)cs3)CC2)nc1`: “normalized enrichment score” -0.868 (HEK-293T; RNA-seq GSEA, refers to: HALLMARK_XENOBIOTIC_METABOLISM; concentration not given; direction not given).
Under nuclear import, `CC(Nc1nc(N2CCCC2)nc2ccccc12)c1ccccc1` (stereo not shown) is recorded as “no effect” (HeLa Kyoto reporter; importin β1-dependent cMyc import; up to 50 µM).
For `O=C(CCCSc1nc2ccccc2c(=O)[nH]1)Nc1nc2ccccc2[nH]1`, the inhibition was 81 ± 3% (cells, COS-1, expressing proMMP-9; cell migration, 2D collagen dot migration; 50 µM, 18 h).
`Oc1[nH]c2ccccc2c1N=NC(=S)N1CCOCC1` has an efficacy of 93% (C127 LDR GFP reporter cells; silenced GFP reporter induction, activator, high-content imaging; retest, two-run mean).
The activity score of `CCCCCCCCCCCCC[N+](C)(C)Cc1ccccc1` is reported as 3.6 (human iPSC-derived cardiomyocytes; MyBP-C/MYH ratio, plate-normalised SD score; concentration not given, primary screen; direction not given).
Under “TAZ protein level”, `CC/C(=N\NC(=O)NCc1cccc(O)c1)c1ccc(O)c(C)c1O` is recorded as 1.29 ± 0.14 (SK-OV-3; Western blot; 2D culture; 10 µM, 1 h, unit not given; relative to: β-actin).
The efficacy of `Cc1ccc(/C=[N+](\[O-])c2ccc(N(C)C)cc2)c2nsnc12` is reported as 41% (C127 LDR GFP reporter cells; silenced GFP reporter induction, activator, high-content imaging; retest, two-run mean).
For `CC[C@H]1OC(=O)[C@H](C)[C@@H](O[C@H]2C[C@@](C)(OC)[C@@H](O)[C@H](C)O2)[C@H](C)[C@@H](O[C@@H]2O[C@H](C)C[C@H](N(C)C)[C@H]2O)[C@](C)(O)C[C@@H](C)C(=O)[C@H](C)[C@@H](O)[C@]1(C)O`, the activity score was 3.7 (human iPSC-derived cardiomyocytes; MyBP-C/MYH ratio, plate-normalised SD score; concentration not given, primary screen; direction not given).
For `CCn1cc(-c2cc(Cn3ccoc3=N)cc3c2CCN([C@@H](C)c2cc(OC)ccn2)C3=O)c(C(F)(F)F)n1`, the EC50 was 31.1 nM (SNU1076; cell growth; 120 h).
`NCCOc1cc(NC(=O)c2cc(OCc3ccc(F)cc3)cc(C(=O)Nc3cc(OCCN)c4ccccc4n3)n2)nc2ccccc12` gave a selectivity ratio of 0.9 (U2OS; cell viability, CellTiter-Glo; 72 h; relative to: IC50 U2OS over WI-38).
With `CCCCCCCCCc1ccc(OCCOCCOCCOCCOCCOCCOCCOCCOCCO)cc1` the activity score was 5.5 (human iPSC-derived cardiomyocytes; MyBP-C/MYH ratio, plate-normalised SD score; concentration not given, primary screen; direction not given).
`COc1ccccc1OCC(=O)N/N=C/C=C/c1ccc([N+](=O)[O-])o1` has an efficacy of 132% (C127 LDR GFP reporter cells; silenced GFP reporter induction, activator, high-content imaging; retest, two-run mean).
The Bcl-2 MFI of `Clc1ccc(C2(c3ccc(-c4cn[nH]c4)cc3)CCNCC2)cc1` is reported as 3860 a.u. (primary CLL cells; flow cytometry; human; 0.01 µM, 24 h; relative to: DMSO, higher = more protein).
With `CCn1cc(-c2cc(Cn3ccnc3)cc3c2CCN([C@H](c2cc(OC)ccn2)C2CC2)C3=O)c(C(F)(F)F)n1` the EC50 was 8020 nM (OVISE; cell growth, inhibitor; 120 h).
For `C=Cc1c2[n-]c(c1C)/C=c1\[n-]/c(c(C)c1C=C)=C\c1[n-]c(c(CCC(=O)O)c1C)/C=c1\[n-]c(c(C)c1CCC(=O)O)=C2.[Sn+4]`, the fold change was 1.91 (SH-SY5Y; RNA-seq, refers to: KLF6 mRNA; 5 µM, 5 h; relative to: untreated cells).
`COc1ccc([C@H]2N(c3ccc(Cl)c(Cl)c3)C(=O)[C@@H]3CCCN32)c(OC)c1OC` (racemic): “mutant huntingtin aggregate size” “no effect” (PC-12 cells expressing mutant huntingtin-eGFP; fluorescence microscopy; 50 µM).
`C[C@H]1[C@@H](O)O[C@@H]2O[C@@]3(C)CC[C@H]4[C@H](C)CC[C@@H]1[C@@]24OO3` has a necrotic cells of 0.2% (K562; annexin V/PI flow cytometry, refers to: annexin V-/PI+; 3.2 µM, 24 h).
`Clc1ccc(C(c2ccccc2Cl)C(Cl)Cl)cc1` (stereo not shown) has an activity score of 15.7 (human iPSC-derived cardiomyocytes; MyBP-C/MYH ratio, plate-normalised SD score; concentration not given, primary screen; direction not given).
For `CCCCCCOC(=O)[C@]1(O)C[C@@H]2O[C@@]1(C)n1c3ccccc3c3c4c(c5c6ccccc6n2c5c31)C(=O)NC4`, “relative cell number” read 130% (SK-OV-3; ATP; 2D monolayer culture; 0.01 µM, 4 days; relative to: untreated).
For `C#C[C@]1(O)CC[C@H]2[C@@H]3CCc4cc(OC5CCCC5)ccc4[C@H]3CC[C@@]21C`, the activity score was 3.8 (human iPSC-derived cardiomyocytes; MyBP-C/MYH ratio, plate-normalised SD score; concentration not given, primary screen; direction not given).
`COc1cccc(OC)c1-c1cc(C(=O)NC2(C(=O)O)C3CC4CC(C3)CC2C4)nn1-c1ccc(C(=O)N(C)CCCN(C)CCCN(C)C(=O)CN2CCN(CC(=O)[O-])CCN(CC(=O)[O-])CCN(CC(=O)[O-])CC2)cc1C(C)C.[177Lu+3]` (stereo not shown) has a macromolecule-bound activity of 15 ± 5% (HT-29; centrifugal filtration 10 kDa; concentration not given, 24 h; relative to: internalized).
For `CC(=O)Nc1cccc(-n2c(=O)n(C3CC3)c(=O)c3c(Nc4ccc(I)cc4F)n(C)c(=O)c(C)c32)c1`, the fractional effect was 0.256 and 0.346 (LoVo (KRAS G13D); cell viability, resazurin; 6.25 nM, 72 h; relative to: DMSO).
For `COc1ccc2c(C)cc(SCC(=O)N(C)C3CCS(=O)(=O)C3)nc2c1` (stereo not shown), the efficacy was 20% (C127 LDR GFP reporter cells; silenced GFP reporter induction, activator, high-content imaging; retest, two-run mean).
`Nc1cccc2c1CN(C1CCC(=O)NC1=O)C2=O` (stereo not shown) has a viability of 6% (bone marrow CD138+ myeloma cells; XTT; 2 µM, mean of three patients).
For `CCCCc1nc(Cl)c(CO)n1Cc1ccc(-c2ccccc2-c2nn[nH]n2)cc1`, “log2 fold change” read 1.52 (human PBMC; RNA-seq, refers to: SH3PXD2B mRNA; 10 µg/mL, 24 h; relative to: untreated control).
With `Br.CN(C)c1nc(=Nc2cccc(Cl)c2)ss1` the efficacy was 41% (C127 LDR GFP reporter cells; silenced GFP reporter induction, activator, high-content imaging; retest, two-run mean).
With `C=CC1=C(C)c2cc3[n-]c(cc4nc(cc5[n-]c(cc1n2)c(C)c5C=C)C(C)=C4CCC(=O)O)c(CCC(=O)O)c3C.[Zn+2]` the fold change was 1.84 (SH-SY5Y; RNA-seq, refers to: FBLIM1 mRNA; 5 µM, 5 h; relative to: untreated cells).
Under “G1 phase cells”, `CC(C)(c1ccc(O)cc1)c1ccc(O)cc1` is recorded as 73.2 ± 5.21% (HepG2 spheroids; Hoechst flow cytometry; 10 µM, 24 h).
`Cn1cc(Nc2nccc(-c3ccc4c(c3)CN(C3COC3)CC[C@H]4NC(=O)c3cn(C(C)(C)C)nn3)n2)cn1` — result for “pathway activation z-score”: 2.98 (mouse splenic B cells; refers to: Sphingosine-1-phosphate signalling; 30 mg/kg, IgD-activated in vivo; relative to: vehicle, direction not given).
`CCCN1CCN(c2ccc3[nH]c(-c4ccc5[nH]c(-c6ccc(OCC)c(OCC)c6)nc5c4)nc3c2)CC1` gave a growth percent of -65.7% (M14; SRB; 10 µM, 48 h).
The selectivity ratio of `O=C(Nc1cc(OCCN2CCCC2)c2ccccc2n1)c1cc(Cl)cc(C(=O)Nc2cc(OCCN3CCCC3)c3ccccc3n2)n1` is reported as 6 (U2OS; cell viability, CellTiter-Glo; 72 h; relative to: IC50 U2OS over WI-38).
`O=C(CC(=O)c1ccccc1)c1ccccc1` has an activity score of 7.5 (human iPSC-derived cardiomyocytes; MyBP-C/MYH ratio, plate-normalised SD score; concentration not given, primary screen; direction not given).
`COc1cnc2cccc(N3CCc4c(cc(Cn5ccnc5C)cc4-c4cn(C)nc4C(F)(F)F)C3=O)c2c1` gave an EC50 of 57.9 nM (SNU1076; cell growth; 120 h).
`CCCc1cc(=O)nc(SCC(=O)Nc2ccc(F)cc2)[nH]1` has an inhibition of 29 ± 4% (cells, COS-1, expressing proMMP-9; cell migration, 2D collagen dot migration; 50 µM, 18 h).
`O=C(Nc1nnc2[nH]c(=S)[nH]c(-c3ccc(Cl)cc3)c1-2)c1ccccc1` — result for “mean growth percent”: 98.2% (NCI60 cell panel; SRB; 10 µM).
`CC1=C(CC(=O)O)c2cc(F)ccc2/C1=C\c1ccc([S+](C)[O-])cc1` (stereo not shown) has an activity score of 3 (human iPSC-derived cardiomyocytes; MyBP-C/MYH ratio, plate-normalised SD score; concentration not given, primary screen; direction not given).
Under “log2 fold change”, `Cn1cc(-c2ccc(-c3cncc(Cl)c3N3CCC4(CCNC4=O)CC3)cc2)cn1` is recorded as 1.65 (COLO 205; gene expression, microarray, refers to: DDIT4 mRNA; concentration not given, 6 h; relative to: untreated cells).
